# Measured values from different studies.
# Each numbered part is a random draw from the data of one study; scales do not carry over between parts.
# Sequence of UniProt Q02750 (whole entry, looked up): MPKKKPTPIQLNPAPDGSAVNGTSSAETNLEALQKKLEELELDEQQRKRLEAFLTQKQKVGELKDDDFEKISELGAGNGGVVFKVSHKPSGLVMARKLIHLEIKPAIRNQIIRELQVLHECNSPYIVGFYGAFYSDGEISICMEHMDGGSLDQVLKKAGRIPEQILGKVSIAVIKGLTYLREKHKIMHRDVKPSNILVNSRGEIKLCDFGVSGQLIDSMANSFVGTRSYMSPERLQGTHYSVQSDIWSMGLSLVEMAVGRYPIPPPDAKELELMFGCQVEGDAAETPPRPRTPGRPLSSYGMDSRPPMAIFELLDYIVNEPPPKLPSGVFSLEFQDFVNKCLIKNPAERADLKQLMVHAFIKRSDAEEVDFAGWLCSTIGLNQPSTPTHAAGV
# Sequence of UniProt P36896 (whole entry, looked up): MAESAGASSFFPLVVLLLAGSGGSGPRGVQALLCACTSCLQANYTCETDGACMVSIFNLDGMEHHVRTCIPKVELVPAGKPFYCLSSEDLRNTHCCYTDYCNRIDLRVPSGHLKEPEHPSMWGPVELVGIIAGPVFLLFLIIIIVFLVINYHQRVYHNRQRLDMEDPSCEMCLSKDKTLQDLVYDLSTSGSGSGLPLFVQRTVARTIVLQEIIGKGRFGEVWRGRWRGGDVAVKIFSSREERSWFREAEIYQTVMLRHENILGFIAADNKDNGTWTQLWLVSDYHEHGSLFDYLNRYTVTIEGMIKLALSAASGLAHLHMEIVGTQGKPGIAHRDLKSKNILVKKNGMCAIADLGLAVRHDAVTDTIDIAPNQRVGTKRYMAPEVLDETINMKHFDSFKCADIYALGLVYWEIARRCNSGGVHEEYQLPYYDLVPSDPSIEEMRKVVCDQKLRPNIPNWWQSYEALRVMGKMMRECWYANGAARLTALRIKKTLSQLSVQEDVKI
# Sequence of UniProt P53671 (whole entry, looked up): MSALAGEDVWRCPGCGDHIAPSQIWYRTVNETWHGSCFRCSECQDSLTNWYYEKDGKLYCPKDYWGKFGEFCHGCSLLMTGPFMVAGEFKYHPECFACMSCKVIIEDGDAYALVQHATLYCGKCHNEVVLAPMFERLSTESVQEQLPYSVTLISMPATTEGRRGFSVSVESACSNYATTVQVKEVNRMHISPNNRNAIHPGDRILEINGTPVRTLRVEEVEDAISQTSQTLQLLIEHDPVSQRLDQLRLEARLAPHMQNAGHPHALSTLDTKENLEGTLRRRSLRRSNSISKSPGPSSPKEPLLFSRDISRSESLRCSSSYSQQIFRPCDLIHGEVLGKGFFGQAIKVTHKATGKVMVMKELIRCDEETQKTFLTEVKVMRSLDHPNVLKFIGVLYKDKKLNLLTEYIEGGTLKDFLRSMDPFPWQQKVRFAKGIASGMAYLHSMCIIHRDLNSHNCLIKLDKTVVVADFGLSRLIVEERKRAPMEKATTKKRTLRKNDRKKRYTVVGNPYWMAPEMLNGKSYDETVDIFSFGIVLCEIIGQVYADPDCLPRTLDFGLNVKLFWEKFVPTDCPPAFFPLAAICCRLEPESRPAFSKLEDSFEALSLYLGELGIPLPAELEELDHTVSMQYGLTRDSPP
# Sequence of UniProt Q00537 (whole entry, looked up): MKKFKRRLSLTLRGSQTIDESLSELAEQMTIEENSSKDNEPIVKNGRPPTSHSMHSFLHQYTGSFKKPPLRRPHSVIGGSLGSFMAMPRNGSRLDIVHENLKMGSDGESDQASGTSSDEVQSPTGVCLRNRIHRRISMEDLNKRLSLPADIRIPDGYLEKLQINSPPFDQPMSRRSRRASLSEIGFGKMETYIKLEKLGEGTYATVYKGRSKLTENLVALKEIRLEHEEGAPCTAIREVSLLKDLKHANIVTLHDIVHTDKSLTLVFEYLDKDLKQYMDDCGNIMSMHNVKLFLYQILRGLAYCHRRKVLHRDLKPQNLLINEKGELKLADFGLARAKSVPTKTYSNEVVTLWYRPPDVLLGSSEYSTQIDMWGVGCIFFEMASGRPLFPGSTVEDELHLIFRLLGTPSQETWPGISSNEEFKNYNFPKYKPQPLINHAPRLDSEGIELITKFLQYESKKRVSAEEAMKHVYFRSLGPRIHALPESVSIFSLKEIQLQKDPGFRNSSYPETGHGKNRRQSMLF
# Sequence of UniProt P29322 (whole entry, looked up): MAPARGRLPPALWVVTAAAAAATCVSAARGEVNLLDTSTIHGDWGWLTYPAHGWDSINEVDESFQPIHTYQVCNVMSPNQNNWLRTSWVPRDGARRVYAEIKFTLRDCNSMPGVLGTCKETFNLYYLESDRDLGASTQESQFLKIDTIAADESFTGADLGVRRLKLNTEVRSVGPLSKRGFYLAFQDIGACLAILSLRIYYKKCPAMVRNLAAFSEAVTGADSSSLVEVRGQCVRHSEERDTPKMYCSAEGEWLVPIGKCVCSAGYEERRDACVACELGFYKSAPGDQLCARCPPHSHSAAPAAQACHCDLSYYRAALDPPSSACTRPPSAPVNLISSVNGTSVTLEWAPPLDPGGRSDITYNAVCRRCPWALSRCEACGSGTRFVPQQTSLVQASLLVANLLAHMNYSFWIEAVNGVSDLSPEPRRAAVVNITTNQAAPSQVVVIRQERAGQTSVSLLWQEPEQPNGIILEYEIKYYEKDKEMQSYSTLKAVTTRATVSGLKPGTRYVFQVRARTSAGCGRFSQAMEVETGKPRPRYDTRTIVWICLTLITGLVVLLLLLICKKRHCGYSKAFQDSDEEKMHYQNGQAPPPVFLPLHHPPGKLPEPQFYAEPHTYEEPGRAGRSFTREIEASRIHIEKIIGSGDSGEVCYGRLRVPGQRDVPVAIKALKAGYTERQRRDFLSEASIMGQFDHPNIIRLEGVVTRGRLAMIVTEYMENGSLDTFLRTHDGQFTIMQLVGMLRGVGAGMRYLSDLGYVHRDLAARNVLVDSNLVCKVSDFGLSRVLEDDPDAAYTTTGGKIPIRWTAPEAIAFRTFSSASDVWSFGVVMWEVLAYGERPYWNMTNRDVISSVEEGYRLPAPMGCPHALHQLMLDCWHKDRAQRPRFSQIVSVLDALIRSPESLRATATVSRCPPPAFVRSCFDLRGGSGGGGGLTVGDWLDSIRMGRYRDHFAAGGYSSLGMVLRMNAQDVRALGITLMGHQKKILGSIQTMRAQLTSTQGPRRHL
# Sequence of UniProt P19784 (whole entry, looked up): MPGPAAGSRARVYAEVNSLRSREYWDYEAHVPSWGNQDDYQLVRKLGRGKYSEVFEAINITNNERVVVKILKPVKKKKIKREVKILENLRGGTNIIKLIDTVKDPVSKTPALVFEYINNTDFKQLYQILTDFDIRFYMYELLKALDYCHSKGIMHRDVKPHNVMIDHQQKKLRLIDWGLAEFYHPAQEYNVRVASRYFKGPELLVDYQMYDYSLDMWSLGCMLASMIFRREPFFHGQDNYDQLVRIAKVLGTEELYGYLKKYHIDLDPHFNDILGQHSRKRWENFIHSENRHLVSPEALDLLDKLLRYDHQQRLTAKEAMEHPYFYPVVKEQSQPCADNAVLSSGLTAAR
# Sequence of UniProt O75716 (whole entry, looked up): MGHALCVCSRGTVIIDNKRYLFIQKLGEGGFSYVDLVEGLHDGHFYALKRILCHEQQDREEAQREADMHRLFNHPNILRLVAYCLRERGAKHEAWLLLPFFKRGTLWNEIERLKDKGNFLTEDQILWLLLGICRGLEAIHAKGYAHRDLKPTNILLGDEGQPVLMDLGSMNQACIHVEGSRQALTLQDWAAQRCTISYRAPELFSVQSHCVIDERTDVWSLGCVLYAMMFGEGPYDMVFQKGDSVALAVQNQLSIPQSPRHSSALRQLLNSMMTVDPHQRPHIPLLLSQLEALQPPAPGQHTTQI
# Sequence of UniProt Q9BXA6 (whole entry, looked up): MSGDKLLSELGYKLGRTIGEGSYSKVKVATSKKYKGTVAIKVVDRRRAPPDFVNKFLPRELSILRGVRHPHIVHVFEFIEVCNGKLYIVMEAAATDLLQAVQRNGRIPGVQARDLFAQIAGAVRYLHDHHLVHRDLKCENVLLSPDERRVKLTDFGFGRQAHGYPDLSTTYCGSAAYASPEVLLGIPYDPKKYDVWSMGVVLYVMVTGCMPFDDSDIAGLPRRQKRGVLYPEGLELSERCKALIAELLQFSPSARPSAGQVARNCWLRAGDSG

# Series 1
# Host: mouse
# Medium: microsomes or S9
# Tested at: 2 µM
# Time: 0.5 h
Compound,remaining compound
N#Cc1ccc(Cn2cnc3c([nH]c4ccccc43)c2=O)cc1,4.6%
CC(C)=CCc1c2c(c3occ(-c4ccc(O)c(O)c4)c(=O)c3c1O)C=CC(C)(C)O2,34.2%
CCCC1(CC(=O)N2CCN(C)CC2)CCOC(C)(C)C1 (stereo not shown),16.2%
CCc1ccccc1NC(=O)CN(C)C(=O)C1CCN(c2cnn(Cc3ccccc3)c(=O)c2)C1 (stereo not shown),3.89%
O=C(Cn1cnc2c(nnn2-c2cccc(Cl)c2)c1=O)Nc1ccc2c(c1)OCCO2,85%
CSc1[nH]c2c(C(F)(F)F)ccc(C(F)(F)F)c2c(=O)c1C(C)=O,> 99%
Cc1cc(C)n(C2CCN(C(=O)c3sc4ncn(C)c(=O)c4c3C)C2)n1 (stereo not shown),41.9%

# Series 2
# SMILES: Cc1cc(NC(=O)c2cccc(S(F)(F)(F)(F)F)c2)cc(-n2ccn3nc(-c4cccnc4)cc23)c1
# Observed: cell-free assay
# Technique: competition with immobilised ligand
# Tested at: 1 µM
target,remaining binding [%]
"Serine/threonine-protein kinase 16 (STK16, Homo sapiens, UniProt O75716)",53.9
"Activin receptor type-1B (ACVR1B, Homo sapiens, UniProt P36896)",100
"Casein kinase II subunit alpha' (CSNK2A2, Homo sapiens, UniProt P19784)",100
"Phosphatidylinositol 4,5-bisphosphate 3-kinase catalytic subunit alpha isoform (PIK3CA, Homo sapiens, UniProt P42336, E542K)",75.2
"Dual specificity mitogen-activated protein kinase kinase 1 (MAP2K1, Homo sapiens, UniProt Q02750)",100
"Serine/threonine-protein kinase 10 (STK10, Homo sapiens, UniProt O94804)",26.8
"Cyclin-dependent kinase 17 (CDK17, Homo sapiens, UniProt Q00537)",83.8
"Epidermal growth factor receptor (EGFR, Homo sapiens, UniProt P00533, T790M)",100
"LIM domain kinase 2 (LIMK2, Homo sapiens, UniProt P53671)",95.3
"Mitogen-activated protein kinase kinase kinase 15 (MAP3K15, Homo sapiens, UniProt Q6ZN16)",100
"Dual specificity tyrosine-phosphorylation-regulated kinase 1B (DYRK1B, Homo sapiens, UniProt Q9Y463)",61.2
"Dual specificity protein kinase TTK (TTK, Homo sapiens, UniProt P33981)",44.8
"Cyclin-dependent kinase 13 (CDK13, Homo sapiens, UniProt Q14004)",64.2
"Ephrin type-A receptor 8 (EPHA8, Homo sapiens, UniProt P29322)",100
"RAC-beta serine/threonine-protein kinase (AKT2, Homo sapiens, UniProt P31751)",82.5
"MAP/microtubule affinity-regulating kinase 4 (MARK4, Homo sapiens, UniProt Q96L34)",84.8
"SRSF protein kinase 1 (SRPK1, Homo sapiens, UniProt Q96SB4)",100
"Maternal embryonic leucine zipper kinase (MELK, Homo sapiens, UniProt Q14680)",100

# Series 3
# SMILES: O=C(Nc1cnn(-c2csc(C(=O)NC3COC3)c2)c1)Nc1ccccc1Cl
# Observed: enzyme activity
# Tested at: 5 µM
target,action,baseline,remaining activity [%]
"Cyclin-dependent kinase 2, with cyclin A (CDK2, Homo sapiens, UniProt P24941)",,untreated control,92.3
"Serine/threonine-protein kinase Nek8 (NEK8, Homo sapiens, UniProt Q86SG6)",inhibitor,,107
"Ephrin type-A receptor 4 (EPHA4, Homo sapiens, UniProt P54764)",,untreated control,98.2
"Dual specificity tyrosine-phosphorylation-regulated kinase 1B (DYRK1B, Homo sapiens, UniProt Q9Y463)",,untreated control,86.6
"Serine/threonine-protein kinase Nek11 (NEK11, Homo sapiens, UniProt Q8NG66)",,untreated control,136
"Testis-specific serine/threonine-protein kinase 6 (TSSK6, Homo sapiens, UniProt Q9BXA6)",,untreated control,102

# Series 4
# Technique: PRP chromatography estimate
# Medium: 1,9-decadiene/PBS
# pH: 7.4
Compound,logD
CC(C)C[C@@H]1NC(=O)[C@H](CC(C)C)NC(=O)[C@@H](C(C)C)NC(=O)[C@H](CC(C)C)NC(=O)[C@@H](Cc2cscn2)NC(=O)[C@H](CCC(=O)N2CCCC2)NC(=O)[C@H](C)NC1=O,-2.26
CC(C)C[C@@H]1NC(=O)[C@H](CC(C)C)NC(=O)[C@H](CC(C)C)NC(=O)[C@H](C(C)C)NC(=O)[C@@H](CCC(=O)N2CCCC2)NC(=O)[C@H](C)NC(=O)[C@H](C)NC1=O,-2.46
CC(C)C[C@@H]1NC(=O)[C@H](CC(C)C)NC(=O)[C@@H](CC(C)C)NC(=O)[C@H](C(C)C)NC(=O)[C@@H](CCC(=O)N2CCCC2)NC(=O)[C@H](Cc2cscn2)NC(=O)[C@H](C)NC1=O,-1.95
CC(C)C[C@@H]1NC(=O)[C@H](CC(C)C)NC(=O)[C@H](CC(C)C)NC(=O)[C@H](C(C)C)NC(=O)[C@H](C)NC(=O)[C@@H](CC(C)C)NC(=O)[C@H](C)NC1=O,-0.717
CC(C)C[C@@H]1NC(=O)[C@H](Cc2cscn2)NC(=O)[C@H](CCC(=O)N2CCCC2)NC(=O)[C@H](CCC(=O)N2CCCC2)NC(=O)[C@@H](Cc2cscn2)NC(=O)[C@H](CC(C)C)NC(=O)[C@@H](CC(C)C)NC1=O,-2.2
CC(C)C[C@@H]1NC(=O)[C@H](C)NC(=O)[C@H](CC(C)C)NC(=O)[C@@H](CC(C)C)NC(=O)[C@H](CC(C)C)NC(=O)[C@@H](C)NC(=O)[C@@H](CC(C)C)NC1=O,-0.242
CC(C)C[C@@H]1NC(=O)[C@H](C)NC(=O)[C@@H](CC(C)C)NC(=O)[C@H](C)NC(=O)[C@H](CC(C)C)NC(=O)[C@H](CC(C)C)NC(=O)[C@H](C)NC1=O,-1.82
CC(C)C[C@@H]1NC(=O)[C@H](Cc2cscn2)NC(=O)[C@H](Cc2cscn2)NC(=O)[C@H](CCC(=O)N2CCCC2)NC(=O)[C@@H](CCC(=O)N2CCCC2)NC(=O)[C@H](CC(C)C)NC(=O)[C@@H](CC(C)C)NC1=O,-2.26
CC(C)C[C@@H]1NC(=O)[C@H](Cc2cscn2)NC(=O)[C@H](Cc2cscn2)NC(=O)[C@H](CC(C)C)NC(=O)[C@@H](CCC(=O)N2CCCC2)NC(=O)[C@H](CC(C)C)NC(=O)[C@@H](CC(C)C)NC1=O,-0.869

# Excerpt of the above (series 2):
target,remaining binding [%]
"SRSF protein kinase 1 (SRPK1, Homo sapiens, UniProt Q96SB4)",100
"LIM domain kinase 2 (LIMK2, Homo sapiens, UniProt P53671)",95.3
"Dual specificity tyrosine-phosphorylation-regulated kinase 1B (DYRK1B, Homo sapiens, UniProt Q9Y463)",61.2
"Phosphatidylinositol 4,5-bisphosphate 3-kinase catalytic subunit alpha isoform (PIK3CA, Homo sapiens, UniProt P42336, E542K)",75.2
